Measured values collected from several papers.
± marks the error that the study gave.
rep main protease: Replicase polyprotein 1ab, main protease (rep, Severe acute respiratory syndrome coronavirus 2, UniProt P0DTD1)
Spike glycoprotein: Spike glycoprotein (Severe acute respiratory syndrome coronavirus 2, UniProt P0DTC2)
Chain of UniProt P9WGJ9 (whole entry, looked up): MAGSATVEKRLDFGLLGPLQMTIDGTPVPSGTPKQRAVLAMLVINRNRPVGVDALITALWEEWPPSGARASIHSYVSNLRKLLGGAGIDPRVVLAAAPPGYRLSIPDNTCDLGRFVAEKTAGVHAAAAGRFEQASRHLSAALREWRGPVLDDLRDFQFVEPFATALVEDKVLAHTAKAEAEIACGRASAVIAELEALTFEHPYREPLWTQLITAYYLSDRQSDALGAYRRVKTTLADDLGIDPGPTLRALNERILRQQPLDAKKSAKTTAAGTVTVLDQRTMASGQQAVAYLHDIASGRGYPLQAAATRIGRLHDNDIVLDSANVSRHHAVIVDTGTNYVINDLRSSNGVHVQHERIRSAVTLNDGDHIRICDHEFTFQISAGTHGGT
Chain of UniProt Q5XXP4 (whole entry, looked up): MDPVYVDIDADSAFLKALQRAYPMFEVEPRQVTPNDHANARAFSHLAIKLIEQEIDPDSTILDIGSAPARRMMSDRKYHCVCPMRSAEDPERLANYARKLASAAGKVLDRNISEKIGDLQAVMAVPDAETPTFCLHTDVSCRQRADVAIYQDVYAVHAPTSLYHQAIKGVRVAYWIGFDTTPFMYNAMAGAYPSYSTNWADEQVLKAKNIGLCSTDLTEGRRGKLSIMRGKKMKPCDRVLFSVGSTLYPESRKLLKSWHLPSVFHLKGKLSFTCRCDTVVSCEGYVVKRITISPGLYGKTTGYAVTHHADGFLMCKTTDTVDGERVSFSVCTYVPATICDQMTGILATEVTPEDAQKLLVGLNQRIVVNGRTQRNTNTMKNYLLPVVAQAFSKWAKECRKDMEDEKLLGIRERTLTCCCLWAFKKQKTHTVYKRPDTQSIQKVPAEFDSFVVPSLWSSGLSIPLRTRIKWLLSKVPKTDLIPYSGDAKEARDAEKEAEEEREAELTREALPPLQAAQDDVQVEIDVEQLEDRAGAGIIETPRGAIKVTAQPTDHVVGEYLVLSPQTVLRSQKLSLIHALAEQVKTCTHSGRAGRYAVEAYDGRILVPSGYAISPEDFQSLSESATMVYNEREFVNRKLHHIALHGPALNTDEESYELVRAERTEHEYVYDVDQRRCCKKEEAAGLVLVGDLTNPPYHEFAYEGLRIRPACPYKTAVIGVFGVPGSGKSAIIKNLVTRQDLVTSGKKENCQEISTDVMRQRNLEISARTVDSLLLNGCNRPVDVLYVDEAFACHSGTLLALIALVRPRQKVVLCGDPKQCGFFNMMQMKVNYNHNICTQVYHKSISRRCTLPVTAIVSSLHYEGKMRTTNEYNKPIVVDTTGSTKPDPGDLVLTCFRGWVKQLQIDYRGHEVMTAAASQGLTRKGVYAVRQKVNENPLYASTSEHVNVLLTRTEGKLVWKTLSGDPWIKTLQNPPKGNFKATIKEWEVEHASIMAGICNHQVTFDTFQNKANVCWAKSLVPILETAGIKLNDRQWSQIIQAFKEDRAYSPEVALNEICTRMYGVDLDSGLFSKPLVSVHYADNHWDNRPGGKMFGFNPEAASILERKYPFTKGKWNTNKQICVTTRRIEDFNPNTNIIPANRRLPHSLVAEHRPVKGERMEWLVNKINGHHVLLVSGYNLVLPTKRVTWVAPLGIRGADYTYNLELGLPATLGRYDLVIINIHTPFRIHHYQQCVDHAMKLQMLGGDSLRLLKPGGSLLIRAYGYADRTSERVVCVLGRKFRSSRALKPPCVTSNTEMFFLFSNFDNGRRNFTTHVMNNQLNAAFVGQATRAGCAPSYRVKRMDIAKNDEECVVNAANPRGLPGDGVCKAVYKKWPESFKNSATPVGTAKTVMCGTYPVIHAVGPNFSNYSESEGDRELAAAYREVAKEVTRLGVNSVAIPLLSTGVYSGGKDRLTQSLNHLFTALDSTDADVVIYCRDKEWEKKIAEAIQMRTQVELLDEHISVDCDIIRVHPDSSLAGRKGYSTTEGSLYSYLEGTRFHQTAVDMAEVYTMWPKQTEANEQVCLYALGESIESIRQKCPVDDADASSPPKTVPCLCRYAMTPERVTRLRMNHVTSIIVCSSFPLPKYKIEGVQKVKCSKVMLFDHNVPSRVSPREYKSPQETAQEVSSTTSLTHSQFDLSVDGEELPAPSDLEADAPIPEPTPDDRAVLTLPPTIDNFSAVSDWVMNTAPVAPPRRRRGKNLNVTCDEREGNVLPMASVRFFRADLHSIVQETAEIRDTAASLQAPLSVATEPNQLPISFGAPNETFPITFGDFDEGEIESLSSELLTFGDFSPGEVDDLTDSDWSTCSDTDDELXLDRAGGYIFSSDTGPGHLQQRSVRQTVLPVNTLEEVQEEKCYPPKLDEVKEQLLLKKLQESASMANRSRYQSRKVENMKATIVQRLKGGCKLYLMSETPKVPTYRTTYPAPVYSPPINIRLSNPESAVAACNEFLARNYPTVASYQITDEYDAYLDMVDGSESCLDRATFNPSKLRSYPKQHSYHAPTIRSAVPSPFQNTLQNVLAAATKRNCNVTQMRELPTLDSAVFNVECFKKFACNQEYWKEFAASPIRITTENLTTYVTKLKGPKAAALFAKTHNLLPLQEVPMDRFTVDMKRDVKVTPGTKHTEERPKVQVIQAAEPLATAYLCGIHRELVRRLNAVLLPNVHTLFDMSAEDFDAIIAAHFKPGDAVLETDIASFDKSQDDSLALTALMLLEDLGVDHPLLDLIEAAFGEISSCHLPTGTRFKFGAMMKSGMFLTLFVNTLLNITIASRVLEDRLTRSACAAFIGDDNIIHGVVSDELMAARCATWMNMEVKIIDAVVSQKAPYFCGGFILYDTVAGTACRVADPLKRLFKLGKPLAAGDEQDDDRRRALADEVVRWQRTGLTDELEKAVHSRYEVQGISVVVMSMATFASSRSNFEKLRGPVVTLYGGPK
Chain of UniProt P78348 (whole entry, looked up): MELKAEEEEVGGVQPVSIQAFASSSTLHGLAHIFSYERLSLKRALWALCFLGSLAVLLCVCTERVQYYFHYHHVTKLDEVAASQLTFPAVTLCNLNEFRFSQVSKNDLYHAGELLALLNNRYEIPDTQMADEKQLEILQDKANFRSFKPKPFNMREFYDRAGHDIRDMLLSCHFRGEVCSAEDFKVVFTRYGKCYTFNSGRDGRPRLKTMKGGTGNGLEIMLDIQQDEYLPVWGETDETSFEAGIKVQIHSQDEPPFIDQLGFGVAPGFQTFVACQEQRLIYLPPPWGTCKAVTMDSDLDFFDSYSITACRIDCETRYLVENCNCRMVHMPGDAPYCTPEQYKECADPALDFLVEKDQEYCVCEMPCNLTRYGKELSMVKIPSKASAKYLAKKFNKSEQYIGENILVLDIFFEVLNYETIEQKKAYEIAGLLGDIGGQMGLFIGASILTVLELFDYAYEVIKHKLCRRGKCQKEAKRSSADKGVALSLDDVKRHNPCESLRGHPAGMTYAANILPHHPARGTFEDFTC

SMILES = O=C1CC(C(=O)N2CC3(CCC3)C[C@H]2CNC(=O)c2cncc3[nH]cnc23)CC(=O)N1; tested on = rep main protease; test = enzyme activity, inhibitor; conditions = 5 µM, run 2; measurement = inhibition; result = 11.9%
SMILES = Cn1cnc(Cn2c(=O)[nH]/c(=N\c3cc4cn(C)nc4cc3Cl)n(Cc3cc(F)c(F)cc3F)c2=O)n1; system = human, severe renal impairment; conditions = oral, 375 mg; measurement = treatment-related TEAE, Severe severity; result = 0%
SMILES = CNC(=O)[C@@H](NC(=O)[C@H](CC(C)C)[C@H](O)C(=O)NO)C(C)(C)C; tested on = human fibrinogen; test = SDS-PAGE; system = Daboia russelii; conditions = concentration not given, unit not given, added: KL venom; scale = baseline: untreated fibrinogen; measurement = remaining fibrinogen γ chain; result = 0.847
SMILES = COc1ccc(-c2oc3ccccc3c(=O)c2N)cc1N; tested on = rep main protease; test = viral replication, Gluc reporter; system = SARS-CoV-2; conditions = 20 µM; measurement = inhibition; result = -1.9%
SMILES = CCc1c(C(=O)C(N)=O)c2c(OCC(=O)O)cccc2n1Cc1ccccc1; tested on = C2C12; conditions = 1 µM, added: KA venom; scale = baseline: venom alone; measurement = viability difference; result = 5.09%
SMILES = CC[C@H](C)[C@H](NC(=O)[C@@H]1CCCN1C(=O)[C@H](C)NC(=O)[C@@H]1CSSC[C@@H]2NC(=O)[C@H](CC(=O)O)NC(=O)[C@H](CCCNC(=N)N)NC(=O)[C@H](CCC(=O)O)NC(=O)[C@H](CCCNC(=N)N)NC(=O)CNC(=O)[C@H](CC(=O)O)NC(=O)[C@@H]3CSSC[C@H](NC(=O)[C@H](CCC(=O)O)NC(=O)[C@H](CC(C)C)NC(=O)CNC(=O)[C@H](C)NC(=O)[C@H](CSSC[C@H](NC(=O)[C@H](Cc4ccccc4)NC(=O)[C@@H](N)CO)C(=O)N[C@@H](CC(C)C)C(=O)N[C@@H](C(C)C)C(=O)N[C@@H](CCCCN)C(=O)N[C@@H](Cc4c[nH]c5ccccc45)C(=O)N[C@@H](CCCCN)C(=O)N[C@@H](CCC(N)=O)C(=O)N3)NC2=O)C(=O)N[C@@H](Cc2c[nH]c3ccccc23)C(=O)N[C@@H](CCCCN)C(=O)N[C@@H](CCCNC(=N)N)C(=O)N[C@@H](CO)C(=O)NCC(=O)N[C@@H](CO)C(=O)N[C@@H](CCCCN)C(=O)N[C@@H](CO)C(=O)N[C@@H](CO)C(=O)N[C@@H](C(C)C)C(=O)N1)C(=O)N[C@H](C(=O)O)[C@@H](C)O; tested on = ASIC1 (Homo sapiens, UniProt P78348); test = binding, SPR; conditions = pH 7.5; measurement = koff; result = 0.182 s⁻¹
SMILES = CC(C)C[C@H](NC(=O)[C@H](C)NC(=O)[C@H](CCC(=O)O)NC(=O)[C@@H](N)Cc1c[nH]cn1)C(=O)N[C@@H](CO)C(=O)N[C@@H](CC(=O)O)C(=O)N1CCC[C@H]1C(=O)N[C@@H](CC(=O)O)C(=O)O; tested on = Transcriptional regulatory protein EmbR (embR, Mycobacterium tuberculosis, UniProt P9WGJ9); test = biolayer interferometry; conditions = 25 °C; measurement = koff; result = 0.000356 ± 0.000101 s⁻¹
SMILES = Nc1ncnc2c([C@@H]3N[C@H](CO)[C@@H](O)[C@H]3O)c[nH]c12; tested on = Marburg marburgvirus; test = virus production; system = HeLa, Musoke; conditions = 25 µM; measurement = supernatant virus titre; result = 0 PFU/mL
SMILES = CC1=C2CC(C(=O)N[C@@H]3CN(C(=O)c4ccc5ccnn5c4)Cc4nccn4C3)=CN=C2NN1; tested on = rep main protease; test = enzyme activity, inhibitor; conditions = 5 µM; measurement = inhibition; result = 11.2%
SMILES = Clc1ccc(Cn2c(CN3CCCC3)nc3ccccc32)cc1; tested on = rep main protease; test = reporter gene (Gaussia luciferase), inhibitor; conditions = 20 µM; measurement = inhibition; result = -0.691%
SMILES = O=C(N[C@@H]1CC[C@@H]2CCN(c3nc4[nH]ncc4c(=O)[nH]3)[C@H]1C2)c1ccc2c(c1)C(=O)NCC2; tested on = rep main protease; test = enzyme activity, inhibitor; conditions = 5 µM, mean of runs; measurement = inhibition; result = 11.4%
SMILES = C[C@H]1CC[C@@]2(OC1)O[C@H]1C[C@H]3[C@@H]4CC[C@@H]5C[C@@H](O[C@@H]6O[C@H](CO)[C@H](O)[C@H](O)[C@H]6O[C@@H]6O[C@H](CO)[C@@H](O)[C@H](O)[C@H]6O)CC[C@]5(C)[C@H]4CC[C@]3(C)[C@H]1[C@@H]2C; tested on = Spike glycoprotein; test = binding, BLI; measurement = kon; result = 9900 M⁻¹ s⁻¹
SMILES = CS(=O)(=O)C=CCNC(=O)c1ccc2c(c1)NC(=O)CC2; tested on = Polyprotein P1234, nsP2 protease domain (Chikungunya virus, UniProt Q5XXP4); test = time-dependent inhibitor; measurement = kinact; result = 0.0024 ± 0.0001 s⁻¹
SMILES = CCOC(=O)CN[C@@H](C(=O)N1CC[C@H]1C(=O)NCc1ccc(/C(N)=N\O)cc1)C1CCCCC1; tested on = rep main protease; test = reporter gene (mKate2), inhibitor; conditions = 20 µM; measurement = inhibition; result = -0.678%
SMILES = CC[C@H](C)[C@H](NC(=O)[C@H](CC(C)C)NC(=O)[C@H](Cc1c[nH]c2ccccc12)NC(=O)[C@H](CCC(N)=O)NC(=O)[C@@H](NC(=O)[C@H](Cc1ccccc1)NC(=O)[C@H](C)NC(=O)[C@H](CCCCNC(=O)COCCOCCNC(=O)COCCOCCNC(=O)CC[C@H](NC(=O)CCCCCCCCCCCCCCCCCCC(=O)O)C(=O)O)NC(=O)[C@H](CCC(N)=O)NC(=O)[C@H](C)NC(=O)[C@@H](NC(=O)[C@H](CCCCN)NC(=O)[C@H](CC(=O)O)NC(=O)[C@H](CC(C)C)NC(=O)C(C)(C)NC(=O)[C@@H](NC(=O)[C@H](CO)NC(=O)[C@H](Cc1ccc(O)cc1)NC(=O)[C@H](CC(=O)O)NC(=O)[C@H](CO)NC(=O)[C@@H](NC(=O)[C@H](Cc1ccccc1)NC(=O)[C@@H](NC(=O)CNC(=O)[C@H](CCC(=O)O)NC(=O)C(C)(C)NC(=O)[C@@H](N)Cc1ccc(O)cc1)[C@@H](C)O)[C@@H](C)O)[C@@H](C)CC)[C@@H](C)CC)C(C)C)C(=O)N[C@@H](C)C(=O)NCC(=O)NCC(=O)N1CCC[C@H]1C(=O)N[C@@H](CO)C(=O)N[C@@H](CO)C(=O)NCC(=O)N[C@@H](C)C(=O)N1CCC[C@H]1C(=O)N1CCC[C@H]1C(=O)N1CCC[C@H]1C(=O)N[C@@H](CO)C(N)=O; system = healthy human; conditions = 1.0 mg, single ascending dose; measurement = treatment-emergent adverse events; result = 20%
SMILES = C[C@@H]1O[C@@H](Oc2c(-c3cc(O)c(O)c(O)c3)oc3cc(O)cc(O)c3c2=O)[C@H](O)[C@H](O)[C@H]1O; tested on = Spike glycoprotein; test = binding, biolayer interferometry; measurement = koff; result = 0.00482 s⁻¹
SMILES = CC(C)C[C@H](NC(=O)CNC(=O)c1cc(Cl)ccc1Cl)B(O)O; tested on = rep main protease; test = reporter gene (mKate2), inhibitor; conditions = 20 µM; measurement = inhibition; result = -1.26%
SMILES = Cc1nc(C(=O)N2CC[C@@H]([C@@H]3CCCN3C(=O)c3cc(O)c4ccoc4c3)C2)cc(=O)[nH]1; tested on = rep main protease; test = Mpro enzyme activity, inhibitor; conditions = 5 µM, high-throughput screen, single run; measurement = inhibition; result = 11.8%
SMILES = CC[C@H](C)[C@H](NC(=O)[C@H](CC(C)C)NC(=O)[C@H](Cc1c[nH]c2ccccc12)NC(=O)[C@H](CCC(N)=O)NC(=O)[C@@H](NC(=O)[C@H](Cc1ccccc1)NC(=O)[C@H](C)NC(=O)[C@H](CCCCNC(=O)COCCOCCNC(=O)COCCOCCNC(=O)CC[C@H](NC(=O)CCCCCCCCCCCCCCCCCCC(=O)O)C(=O)O)NC(=O)[C@H](CCC(N)=O)NC(=O)[C@H](C)NC(=O)[C@@H](NC(=O)[C@H](CCCCN)NC(=O)[C@H](CC(=O)O)NC(=O)[C@H](CC(C)C)NC(=O)C(C)(C)NC(=O)[C@@H](NC(=O)[C@H](CO)NC(=O)[C@H](Cc1ccc(O)cc1)NC(=O)[C@H](CC(=O)O)NC(=O)[C@H](CO)NC(=O)[C@@H](NC(=O)[C@H](Cc1ccccc1)NC(=O)[C@@H](NC(=O)CNC(=O)[C@H](CCC(=O)O)NC(=O)C(C)(C)NC(=O)[C@@H](N)Cc1ccc(O)cc1)[C@@H](C)O)[C@@H](C)O)[C@@H](C)CC)[C@@H](C)CC)C(C)C)C(=O)N[C@@H](C)C(=O)NCC(=O)NCC(=O)N1CCC[C@H]1C(=O)N[C@@H](CO)C(=O)N[C@@H](CO)C(=O)NCC(=O)N[C@@H](C)C(=O)N1CCC[C@H]1C(=O)N1CCC[C@H]1C(=O)N1CCC[C@H]1C(=O)N[C@@H](CO)C(N)=O; system = human; conditions = subcutaneous, 10.0 mg once weekly, week 15, multiple doses; measurement = Vz/F; result = 7.23 L
SMILES = Cc1ccc(S(=O)(=O)N[C@@H](Cc2ccccc2)C(=O)CCl)cc1; tested on = rep main protease; test = reporter gene (mKate2), inhibitor; conditions = 20 µM; measurement = inhibition; result = -0.64%
SMILES = Cc1[nH]nc2c(C(=O)N3CCC4(CCC[C@H]4NC(=O)C4=CN=C5NNN=C5C4)CC3)cccc12; tested on = rep main protease; test = enzyme activity, inhibitor; conditions = 5 µM, run 1; measurement = inhibition; result = 10.9%
SMILES = Nc1ncnc2c1ncn2[C@H]1C[C@H](O)[C@@H](COP(=O)(O)OP(=O)(O)OP(=O)(O)O)O1; tested on = Gag-Pol polyprotein, reverse transcriptase (gag-pol, Human immunodeficiency virus type 1 group M subtype B, UniProt P04585, K653T); test = substrate; conditions = K66T mutant, added: matched T:A primer template; measurement = Km; result = 0.0866 ± 0.0138 µM

For quick reference, copied from above:
SMILES = CC(C)C[C@H](NC(=O)[C@H](C)NC(=O)[C@H](CCC(=O)O)NC(=O)[C@@H](N)Cc1c[nH]cn1)C(=O)N[C@@H](CO)C(=O)N[C@@H](CC(=O)O)C(=O)N1CCC[C@H]1C(=O)N[C@@H](CC(=O)O)C(=O)O; tested on = Transcriptional regulatory protein EmbR (embR, Mycobacterium tuberculosis, UniProt P9WGJ9); test = biolayer interferometry; conditions = 25 °C; measurement = koff; result = 0.000356 ± 0.000101 s⁻¹
SMILES = CS(=O)(=O)C=CCNC(=O)c1ccc2c(c1)NC(=O)CC2; tested on = Polyprotein P1234, nsP2 protease domain (Chikungunya virus, UniProt Q5XXP4); test = time-dependent inhibitor; measurement = kinact; result = 0.0024 ± 0.0001 s⁻¹
SMILES = COc1ccc(-c2oc3ccccc3c(=O)c2N)cc1N; tested on = rep main protease; test = viral replication, Gluc reporter; system = SARS-CoV-2; conditions = 20 µM; measurement = inhibition; result = -1.9%
